Measured values collected from several papers.
Cell line: HOP-62

SMILES	test	conditions	scale	quantity	value
CCC(=C(c1ccc(Cl)cc1)c1ccc(OCCCN(C)C)cc1)c1ccc(OC)cc1	cell growth or viability, SRB			GI50	7.76 µM
O=C(CSc1nc(-c2ccccc2)n[nH]1)N1CCC(=C2c3ncccc3CCc3cc(Cl)cc(Br)c32)CC1	cell growth or viability, SRB			IC50	> 120 µM
CC(=C(c1ccc(O)cc1)c1ccc(Cl)cc1)c1ccc(Cl)cc1	cell growth or viability, SRB			GI50	0.59 µM
O=C(CN1CCN(c2nsc3ccccc23)CC1)N1CCC(=C2c3ncccc3CCc3cc(Cl)cc(Br)c32)CC1	cell growth or viability, SRB			IC50	60 µM
COc1cc(CNC(=O)C[C@H](C)CCC=C(C)C)ccc1OCc1cn(-c2ccccc2[N+](=O)[O-])nn1	SRB	10 µM, 48 h		growth percent	78.1%
CC/C=C\C/C=C\C/C=C\C/C=C\C/C=C\C/C=C\CCC(=O)Nc1ccn(C2OC(CO)C(O)C2(F)F)c(=O)n1 (stereo not drawn)	NCI60 screen			TGI	4.47 µM
COc1cc(CNC(=O)C[C@H](C)CCC=C(C)C)ccc1OCc1cn(-c2ccccc2Cl)nn1	SRB	10 µM, 48 h		growth percent	79.2%
CC(=O)OC[C@H]1O[C@@H](Sc2sc(C(=O)c3ccc(C)cc3)c(N)c2-c2nc3ccccc3s2)[C@H](OC(C)=O)[C@@H](OC(C)=O)[C@@H]1OC(C)=O	SRB	10 µM, 48 h	relative to: untreated	growth	61.5%
COc1cc(CNC(=O)C[C@H](C)CCC=C(C)C)ccc1OCc1cn(-c2ccc(Cl)c(Cl)c2)nn1	SRB	10 µM, 48 h		growth percent	95.7%
CC(=O)OC[C@H]1O[C@@H](Sc2sc(C(=O)c3ccc(Br)cc3)c(N)c2-c2nc3ccccc3s2)[C@H](OC(C)=O)[C@@H](OC(C)=O)[C@H]1OC(C)=O	SRB	10 µM, 48 h	relative to: untreated	growth	91.1%
O=C(CSc1nnc(-c2ccccc2)o1)N1CCC(=C2c3ncccc3CCc3cc(Cl)cc(Br)c32)CC1	cell growth or viability, SRB			IC50	> 120 µM
COc1cc(CNC(=O)C[C@H](C)CCC=C(C)C)ccc1OCc1cn(-c2ccc([N+](=O)[O-])cc2)nn1	SRB	10 µM, 48 h		growth percent	104%

A few entries again:
SMILES	test	conditions	scale	quantity	value
COc1cc(CNC(=O)C[C@H](C)CCC=C(C)C)ccc1OCc1cn(-c2ccc(Cl)c(Cl)c2)nn1	SRB	10 µM, 48 h		growth percent	95.7%
